Measurements gathered from unrelated publications.
Target: Serine/threonine-protein kinase SIK1 (SIK1, Homo sapiens, UniProt P57059)
Chain of UniProt P57059 (whole entry, looked up): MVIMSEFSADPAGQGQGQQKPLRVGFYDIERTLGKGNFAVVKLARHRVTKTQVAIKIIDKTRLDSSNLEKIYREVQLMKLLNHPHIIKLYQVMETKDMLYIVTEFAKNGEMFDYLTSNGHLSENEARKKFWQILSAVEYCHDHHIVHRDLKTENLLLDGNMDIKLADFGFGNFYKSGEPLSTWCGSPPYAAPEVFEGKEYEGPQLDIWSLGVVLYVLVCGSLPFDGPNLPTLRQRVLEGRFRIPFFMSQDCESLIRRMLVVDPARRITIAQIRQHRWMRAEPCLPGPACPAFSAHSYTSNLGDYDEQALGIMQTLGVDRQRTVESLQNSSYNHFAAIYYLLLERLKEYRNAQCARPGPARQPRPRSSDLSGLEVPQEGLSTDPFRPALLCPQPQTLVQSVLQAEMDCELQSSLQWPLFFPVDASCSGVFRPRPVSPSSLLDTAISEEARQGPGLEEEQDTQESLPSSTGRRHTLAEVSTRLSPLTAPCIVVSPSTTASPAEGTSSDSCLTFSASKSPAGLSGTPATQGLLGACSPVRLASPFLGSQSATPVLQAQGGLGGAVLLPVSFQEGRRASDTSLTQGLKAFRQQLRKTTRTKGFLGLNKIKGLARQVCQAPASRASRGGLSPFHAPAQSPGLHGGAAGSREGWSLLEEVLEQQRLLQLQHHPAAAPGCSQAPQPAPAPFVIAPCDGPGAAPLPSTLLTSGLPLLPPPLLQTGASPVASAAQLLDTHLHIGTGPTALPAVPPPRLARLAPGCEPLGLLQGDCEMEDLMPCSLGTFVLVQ

The remaining binding of `O=C(NCC1CCOCC1)c1n[nH]cc1NC(=O)c1c(F)cccc1F` is reported as 97% (scanMAX; 1 µM; baseline: untreated).
`COc1cc(N2CCN(C)CC2)ccc1Nc1nc(N)n(C(=O)NCc2ccccc2S(=O)(=O)C(C)C)n1` has a remaining activity of 31% (enzyme activity; 10 µM; baseline: control).
`COc1cnc(Nc2cccc(S(N)(=O)=O)c2)nc1N1CCN(c2ccccc2)CC1` has a remaining binding of 100% (KINOMEscan; 1 µM).
The remaining binding of `C[C@@H](c1ccc(-n2cnc3c(N)ncnc32)cc1)N1CCc2nn(C)c(Cc3ccccc3)c2C1=O` is reported as 43% (KINOMEscan; 0.1 µM; baseline: DMSO control).
The remaining activity of `COc1cc(N2CCN(C)CC2)ccc1Nc1nc(N)n(C(=O)NCc2c(Cl)cccc2Cl)n1` is reported as 8% (enzyme activity; 10 µM; baseline: control).
For `O=C(NCCCN1CCOCC1)c1ccc(Nc2ncc(Cl)c(-c3ccc(Cl)s3)n2)cc1`, the remaining binding was 78% (binding, KINOMEscan competition binding; 1 µM; baseline: DMSO control).
For `CCN1CCN(Cc2ccc(C(=O)Nc3ccc(C)c(Oc4ccc5c(c4)CC(=O)N5)c3)cc2C(F)(F)F)CC1`, the remaining binding was 100% (KINOMEscan; 1 µM).
The remaining binding of `c1cncc(-c2cccc(Nc3nccc(NC4CCCCC4)n3)c2)c1` is reported as 46% (KINOMEscan; 10 µM).
The remaining activity of `CCCOc1ccc(OC)c(F)c1C(=O)c1ccc(C(=O)N[C@@H]2CNC[C@H]2NC(=O)c2ccc3[nH]ncc3c2)cc1` is reported as 37% (enzyme activity; 10 µM).
`C=CC(=O)N1CCC(C(=O)NCC(=O)N2CCN(c3nc(-c4cnc(N)nc4C(F)F)nc(N4CCOCC4)n3)CC2)CC1` gave a remaining binding of 89% (KINOMEscan; 1 µM).
With `COc1cnc(Nc2cccc(S(N)(=O)=O)c2)nc1N1CCN(c2ccccc2)C(=O)C1` the remaining binding was 100% (KINOMEscan; 1 µM).
The remaining binding of `O=C(NCCCN1CCOCC1)c1ccc(Nc2nccc(-c3cc4ccccc4s3)n2)cc1` is reported as 62% (binding, KINOMEscan competition binding; 1 µM; baseline: DMSO control).
For `COc1cc(F)ccc1-c1ncnc(Nc2cccc(C[S@](C)(=N)=O)c2)n1`, the remaining activity was 67% (kinase activity; 10 µM, together with: 10 µM ATP).
The remaining binding of `C=CC(=O)N1CCC(COCC(=O)N2CCN(c3nc(-c4cnc(N)nc4C(F)F)nc(N4CCOC[C@@H]4C)n3)CC2)CC1` is reported as 100% (KINOMEscan; 1 µM; baseline: DMSO control).
With `Nc1ncc2c(n1)-c1c([nH]c3ccc(C#CC4CC4)cc13)CCCC2` the remaining binding was 90% (scanMAX; 1 µM).
`O=C(c1ccc(Nc2ncc(Cl)c(-c3cc4ccccc4s3)n2)cc1)N1CCC(N2CCCC2)CC1` has a remaining binding of 97% (binding, KINOMEscan competition binding; 1 µM; baseline: DMSO control).
